{"data": "Experimental data collected from several papers", "note": "Each line is one published result; not all experiments were run side by side."}
{"Compound": "COc1c(OCCCN2CCOCC2)ccc2c1N=C(NC(=O)c1cnc(N)nc1)N1CCN=C21", "test": "item: Diarrhoea", "system": "patients with advanced malignancies", "setting": "intravenous, dose not given, any grade, all cohorts, together with: gemcitabine", "measurement": "patients with adverse event", "result": "42%"}
{"Compound": "CC(=O)c1c(C)c2cnc(Nc3ccc(C4CCN(CCS(C)(=O)=O)CC4)cn3)nc2n(C2CCCC2)c1=O", "system": "HR+/HER2- advanced breast cancer patients", "setting": "oral, dose not given, all grades, dose escalation, sample B patients", "measurement": "patients with anaemia", "result": "31.6%"}
{"Compound": "CCN(CCO)CCCC(C)Nc1ccnc2cc(Cl)ccc12 (stereo not shown)", "test": "item: Dizziness grade 1", "system": "newly diagnosed glioblastoma patients", "setting": "oral, 400 mg/dose, with radiotherapy and temozolomide", "measurement": "patients with adverse event", "result": "14%"}
{"Compound": "C=CCNc1c(O)cc2c(O)c1C[C@@H](C)C[C@H](OC)[C@H](O)[C@@H](C)/C=C(\\C)[C@H](OC(N)=O)[C@@H](OC)/C=C\\C=C(/C)C(=O)N2", "system": "unresectable or metastatic STS, GIST, other", "setting": "intravenous, 300 mg/m^2", "measurement": "patients with vomiting TEAE", "result": "33%"}
{"Compound": "Nc1nc2cc(-c3ccc4ncc(C(=O)N5CCOCC5)n4c3)ccc2o1", "test": "item: Nausea", "system": "advanced solid tumour patients", "setting": "dose not given", "measurement": "patients with adverse event", "result": "4%"}
{"Compound": "CC(C)(C)c1cnc(CSc2cnc(NC(=O)C3CCNCC3)s2)o1", "tested on": "human coronavirus OC43", "test": "virus-induced cell killing", "system": "MRC-5", "setting": "maximum over 10 doses", "measurement": "maximum inhibition", "result": "0%"}
{"Compound": "Cc1cc(OCCOCCC(F)(F)P(=O)(O)O)ccc1CCc1cnc2c(N)nc3cc(CCC(=O)O)ccc3c2c1", "test": "item: nausea", "system": "adults with advanced solid tumours", "setting": "dose not given, by treatment group, all grades", "measurement": "patients with non-serious AE", "result": "4.8%"}
{"Compound": "O=C1Nc2cc3[nH]nc(-c4ccncc4)c3cc2CN1Cc1ccccc1", "test": "item: dermatitis acneiform", "system": "patients with advanced solid tumours", "setting": "intravenous, dose not given, both schedules pooled", "measurement": "patients with TEAE", "result": "18%"}
{"Compound": "Nc1cc(C(F)(F)F)c(-c2cc(N3CCOCC3)nc(N3CCOCC3)n2)cn1", "tested on": "human coronavirus OC43", "test": "virus-induced cell killing", "system": "MRC-5", "setting": "maximum over 10 doses", "measurement": "maximum inhibition", "result": "0%"}
{"Compound": "CN1CC[C@@H](c2c(O)cc(O)c3c(=O)cc(-c4ccc(C(F)(F)F)cc4Cl)oc23)[C@@H]1CO", "test": "item: Hyperglycemia", "system": "relapsed B-cell malignancies or AML", "setting": "oral, 50 mg, grade 3-4, continuous dosing", "measurement": "patients with adverse event", "result": "0%"}
{"note": "For quick reference, copied from above:"}
{"Compound": "Nc1nc2cc(-c3ccc4ncc(C(=O)N5CCOCC5)n4c3)ccc2o1", "test": "item: Nausea", "system": "advanced solid tumour patients", "setting": "dose not given", "measurement": "patients with adverse event", "result": "4%"}
